Measurements of several laboratories.
Each line is one published result; not all experiments were run side by side.
Cell line: HFF

Structure (SMILES) | assay | setting | quantity | value
CC(C)CCN(c1nc(C#N)nc(NC2COC2)n1)C(C)c1ccc(F)cc1 (stereo not drawn) | cell growth or viability, MTS | 7 days | CC50 | 29.1 µM
Nc1nc2c(ncn2COCCOC(=O)[C@@H](N)CO)c(=O)[nH]1 | cell growth or viability |  | CC50 | > 300 µM
CC1(C)NCCC[C@]2(C)[C@H]3C=CC4=C5C[C@@](C)(CO)CC[C@]5(C)CC[C@@]4(C)[C@]3(C)CC[C@@H]12 | cell growth or viability, ATP luminescence |  | CC50 | 80.9 µM
C[C@H](N)C(=O)OCCOCn1cnc2c(=O)[nH]c(N)nc21 | cell proliferation | 10% FBS | CC50 | > 300 µM
CC(C)(C)c1cc(-c2nc3c4ccccc4c4ccccc4c3o2)c(O)c(C(C)(C)C)c1 | colorimetric viability | concentration not given, 72 h, at anti-Trypanosoma effective doses | cytotoxicity | not toxic
N#Cc1nc(N2CCOCC2)nc(N(Cc2ccc(F)cc2)CC2CCCOC2)n1 (stereo not drawn) | cell growth or viability, MTS | 7 days | CC50 | 34.6 µM
CC1(C)CC[C@]23CC[C@]4(C)[C@H](CC[C@@H]5[C@@]6(C)CCCNC(C)(C)[C@@H]6CC[C@]54C)[C@H]2[C@H]1OC3 | cell growth or viability, ATP luminescence |  | CC50 | 89.5 µM
C[C@H]1O[C@@H]2C3=C(O[C@]2(C)[C@@]1(O)C=O)C(=O)c1c(O)cccc1C3=O | cell growth or viability, MTT | 48 h | CC50 | 7.6 mg/L
N#Cc1nc(N2CCOCC2)nc(N(Cc2ccc(F)cc2)CC2CCCCC2)n1 | cell growth or viability, MTS | 7 days | CC50 | > 100 µM
O=C(NC1CCCCC1)c1nc(Cl)c2cccnc2c1O | cell growth or viability, MTS | 10 µM, 7 days | viability | 98%
Nc1nc2c(ncn2COCCOC(=O)[C@@H](N)CS)c(=O)[nH]1 | cell proliferation | 10% FBS | CC50 | > 300 µM
COC(=O)c1nc(O)c2cccnc2c1O | cell growth or viability, MTS | 10 µM, 7 days | viability | 98%
Nc1nc2c(ncn2COCCOC(=O)CCC(=O)OC[C@H](N)C(=O)O)c(=O)[nH]1 | cell growth or viability |  | CC50 | > 300 µM
C[C@@H]1O[C@H]2O[C@@H]3C4(O)C(=O)c5cccc(O)c5C(=O)C4(O)O[C@]3(C)[C@]21O (stereo partly drawn) | cell growth or viability, MTT | 48 h | CC50 | 71 mg/L
O=C(NCc1ccc(F)cc1)c1nc(NCCO)c2cccnc2c1O | cell growth or viability, MTS | 10 µM, 7 days | viability | 98%

Some of these lines once more:
Structure (SMILES) | assay | setting | quantity | value
CC(C)(C)c1cc(-c2nc3c4ccccc4c4ccccc4c3o2)c(O)c(C(C)(C)C)c1 | colorimetric viability | concentration not given, 72 h, at anti-Trypanosoma effective doses | cytotoxicity | not toxic
